Experimental data pooled from the literature.
Each line is one published result; not all experiments were run side by side.
Organism: Human alphaherpesvirus 1

Structure (SMILES) | test | system | setting | scale | measurement | result
C=C(C)[C@@H]1CC[C@]2(C(N)=O)CC[C@]3(C)[C@H](CC[C@@H]4[C@@]5(C)CCCNC(C)(C)[C@@H]5CC[C@]43C)[C@@H]12 | cytopathic effect | HFF, E-377 |  |  | EC90 | > 6 µM
O=c1c(-c2nc3ccccc3s2)cc2c(n1NS(=O)(=O)c1ccc(Cl)cc1)CCCCCC2 | viral replication, plaque reduction | Vero cells |  | relative to: CC50 over IC50 | selectivity index | 3.56
Cc1cccc(C=NNC(=N)NO)n1 | plaque formation | Vero | 96 h |  | IC50 | > 100 µM
Cc1ccc(S(=O)(=O)Nn2c3c(cc(-c4nc5ccccc5s4)c2=O)CCCCCC3)cc1 | viral replication, plaque reduction | Vero cells |  |  | IC50 | 98 µg/mL
N=C(NO)NN=Cc1ncccc1O | plaque formation | Vero | 96 h |  | IC50 | 156 µM
C=CC1CN(C(=O)NCC=CCSCC=CCNC(=O)N2CC(C=C)OC2=S)C(=S)O1 (centres unmarked) | viral replication | HSV-1 |  |  | IC50 | 3.7 µM
CC(=O)OC[C@H]1O[C@@H](Sc2sc(C(=O)c3ccc(C)cc3)c(N)c2-c2nc3ccccc3s2)[C@H](OC(C)=O)[C@@H](OC(C)=O)[C@H]1OC(C)=O | plaque formation | HSV-1 |  |  | IC50 | 0.57 µg/mL
C=C(C)[C@@H]1CC[C@]2(C(=O)n3ccnc3)CC[C@]3(C)[C@H](CC[C@@H]4[C@@]5(C)CCCNC(C)(C)[C@@H]5CC[C@]43C)[C@@H]12 |  | HFF, E-377 |  | relative to: CC50 over EC50 | selectivity index | < 1

For quick reference, copied from above:
Structure (SMILES) | test | system | setting | scale | measurement | result
CC(=O)OC[C@H]1O[C@@H](Sc2sc(C(=O)c3ccc(C)cc3)c(N)c2-c2nc3ccccc3s2)[C@H](OC(C)=O)[C@@H](OC(C)=O)[C@H]1OC(C)=O | plaque formation | HSV-1 |  |  | IC50 | 0.57 µg/mL
